Results from different studies.
A part holds a random share of what one study measured.

Sample 1
Target: Sal-like protein 4, full length isoform B (SALL4, Homo sapiens, UniProt Q9UJQ4-2, residues 1-616)
Method: universal PBM
Molecule type: double-stranded DNA, one strand shown
Sample: in vitro
Tested at: not given
Notes: 8-mer, flanks averaged, mean of replicates
Direction: higher = stronger binding
Quantity: E-score
ATACAGGA: 0.194
GCCTCCCA: -0.256
TCATCTCA: 0.0539
AAGGTCAC: -0.127
GGAGTGAC: -0.00775
AATACACG: 0.14
AAAATTCT: 0.264
CGCCGCTC: -0.365
ACTGTCGC: -0.19
GAGCCCGC: -0.374
ATTGGTTG: 0.0411
AGTGGTAC: -0.174
ATCGGTAA: 0.122
AAGACGGT: 0.0212
TATAGCCA: 0.142
AGCATCAG: -0.0439
GAGGGCCA: -0.268
ATTTCGGA: 0.261
ATCGTTTG: 0.17

Sample 2
Target: Histone acetyltransferase KAT6A, winged helix 2, GST fusion (KAT6A, Homo sapiens, UniProt Q92794, residues 85-181)
Method: protein binding microarray
Molecule type: double-stranded DNA, one strand shown
Sample: in vitro
Tested at: not given
Notes: 8-mer, flanks averaged, mean of 2 arrays, mostly near background
Baseline: not given
Direction: higher = stronger binding
Quantity: E-score
Construct (chain): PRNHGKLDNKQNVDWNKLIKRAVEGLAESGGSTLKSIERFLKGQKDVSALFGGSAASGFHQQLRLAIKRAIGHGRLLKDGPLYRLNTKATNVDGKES
CCTCGGCC: 0.234
AGGATTAG: 0.0588
CCAGACAA: 0.0603
CTGAAAGA: 0.096
AACTGATC: -0.066
CGCCTCGC: 0.209
CTTATCAA: 0.149
CTGGCAAA: 0.0394
AACCTACT: -0.144
ATCGTCAT: -0.0328
GGATACTA: 0.0187
CATCCGGG: 0.253
AGGATAAC: -0.23
GTCCCCTA: -0.00298
CTCCGCTA: -0.16
GTACCCCA: -0.117
TACAGCTA: -0.229
ATAGTCGC: -0.0145
ATGAACGC: 0.19
ACCACGAC: 0.0708
CACAGTAA: 0.0121
GAAATTGC: 0.0519

Sample 3
Target: Phosphate system positive regulatory protein PHO4, full length, GST-tagged (PHO4, Saccharomyces cerevisiae, UniProt P07270, residues 1-312)
Method: competition protein-binding microarray
Molecule type: double-stranded DNA, one strand shown
Sample: in vitro
Tested at: 2 µM
Notes: whole 60-bp probe, lowest competitor level
With: Cbf1 competitor, 0.05 µM
Direction: higher = stronger binding
Quantity: fluorescence intensity
Residues (chain): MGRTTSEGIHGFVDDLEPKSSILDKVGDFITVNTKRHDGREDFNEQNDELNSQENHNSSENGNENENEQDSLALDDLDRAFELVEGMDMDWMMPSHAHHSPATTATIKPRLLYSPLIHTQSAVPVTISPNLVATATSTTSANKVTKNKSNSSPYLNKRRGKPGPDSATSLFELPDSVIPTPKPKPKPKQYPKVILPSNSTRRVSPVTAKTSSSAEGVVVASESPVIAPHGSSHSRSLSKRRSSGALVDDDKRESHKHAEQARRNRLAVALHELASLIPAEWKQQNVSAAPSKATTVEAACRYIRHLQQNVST
AATATCCTCAACCTACACGTCTTCACCATCGGTACCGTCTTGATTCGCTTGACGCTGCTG: 6110 a.u.
AATTGGGTATTTTACCTCGTGATGGCCTCACAAAAGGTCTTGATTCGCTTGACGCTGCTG: 9230 a.u.
GCTGAAGTTATTGACTCCGTGGGTAATAAGGTCTCAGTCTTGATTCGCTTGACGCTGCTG: 4960 a.u.
CACAGCGAAGTATGGCTCGTGACTCGCAAAATCATCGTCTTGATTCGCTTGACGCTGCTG: 8070 a.u.
CTTCTGTAAATTTGTGGAGTGGGTGGACGCGCCCCGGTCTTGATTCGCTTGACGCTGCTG: 4050 a.u.
CATACCCAACCTTGTCACGGAACTTAAGATATTTGTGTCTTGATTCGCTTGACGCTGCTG: 4060 a.u.
CATACCCAACCTTGAAAGGTGGGTGAAGATATTTGTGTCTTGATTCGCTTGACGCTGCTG: 3950 a.u.
TCTTTTCAGAGGCCCCATGTGGGCCCTTTCTTCCAAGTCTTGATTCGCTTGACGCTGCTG: 10600 a.u.
AGCGTTCAACTAGTCTACTAAAAAGTAAAAGAGTTAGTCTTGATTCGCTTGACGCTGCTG: 2830 a.u.
GAACTTGAAGCACTTCACGTGCCGATCCTGCGCTCAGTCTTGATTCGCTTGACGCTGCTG: 13700 a.u.
TTTGGCCTCAAATGACACATGCAATCTCGAACAGTTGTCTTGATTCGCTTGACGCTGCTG: 7740 a.u.
ACAAGTTTTACTCGGCACGTCAATTCGATGAAGCTAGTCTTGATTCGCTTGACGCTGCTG: 4740 a.u.
TGGCGCTGGGGTCCTCACGGGCGCTTTGTTCAAGTCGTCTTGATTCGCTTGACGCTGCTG: 4480 a.u.
TTGGTACTGGTATTGCACGTGGAAGTGGCGGAGCAGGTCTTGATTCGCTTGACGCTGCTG: 17900 a.u.
TCGTCGATGAAGCTGAACGTGCAAAGCTGGACTTACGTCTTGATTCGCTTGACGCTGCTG: 10900 a.u.
CTAACGAAGGTTTGTCACTAAACTTACAAGCCAAGTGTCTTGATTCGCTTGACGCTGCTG: 2840 a.u.
GTATTTATGGCCTGGCACGTTCATTTCCTACATCCTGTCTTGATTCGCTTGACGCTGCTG: 12600 a.u.
TTGTTATTTTGTCCGCGCATGTCCCGGACCCGCCATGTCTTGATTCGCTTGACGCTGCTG: 7460 a.u.
CATACCCAACCTTGTTCTGTGGGTGAAGATATTTGTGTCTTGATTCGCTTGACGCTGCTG: 3650 a.u.
CGTTGCAGGAGCCCGCCCATGGACGCATTTGAGCAAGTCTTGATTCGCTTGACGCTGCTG: 3990 a.u.
CCTCCGTTAGGTTGTCATGCCCCGAGGGTGCGAGGTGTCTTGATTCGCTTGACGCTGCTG: 5880 a.u.
ATGGTTTATCCCGGCCACGTGTGTTACCTCCGGTGAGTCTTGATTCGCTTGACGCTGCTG: 17000 a.u.
TAACAACAGGACCATCACGTGAAACTTCGACGGCTTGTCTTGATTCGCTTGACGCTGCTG: 10700 a.u.
TATCAAATTTGCGGCCACGCAAGTAACTACGTAGGTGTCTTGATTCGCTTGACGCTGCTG: 6730 a.u.
GTTATTAAACTCCGTCACAGTAAGGCATACCCCATTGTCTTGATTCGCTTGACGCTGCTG: 4240 a.u.

Sample 4
Target: RNA binding protein fox-1 homolog 2, RRM domain, GST-SBP tag (RBFOX2, Homo sapiens, UniProt O43251-10, residues 100-194)
Method: RNA Bind-n-Seq
Molecule type: RNA
Sample: in vitro
Tested at: 365 nM
Notes: natural RNA segment, single round, ends assumed
Baseline: no-protein control
Direction: higher = stronger binding
Quantity: RBNS enrichment (R)
Construct (chain): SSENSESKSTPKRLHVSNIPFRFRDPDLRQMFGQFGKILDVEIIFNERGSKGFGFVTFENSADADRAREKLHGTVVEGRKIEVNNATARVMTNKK
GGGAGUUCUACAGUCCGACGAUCAUUUCUGCUUUGUCUAUAAGAAGUGGUCAAGUCCAACUCUGUGACAACUCUUAACUUGCCUCCCUGUUAAUAAGUCUUUGAUUCUGAAGUGAACGUUAGCUUUUCUCAAAUGGAAUUCUCGGGUGCCAA: 0.569
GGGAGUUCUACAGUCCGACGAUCCAUAGACCUGAGAGGAGCAGAGAAGGAACACUACAUUCUCUAACGUUCUGUUAACCUUUGUACCAAAUAGCAAUAAAAACGAGUGGGAGCCGUUGGGCGGUGCGCCAGAGUGGAAUUCUCGGGUGCCAA: 0.359
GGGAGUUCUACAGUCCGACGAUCGUGCACACUCGGAUUUGCUACGUUUCUAUAUAUCUUGAAGCUAAAUGUAUAUAUGAGUAGUUUGCCAUGAGAUAACACAGUGUAAACAGUAGACACCCAGAAAUCGUGACUGGAAUUCUCGGGUGCCAA: 0.413
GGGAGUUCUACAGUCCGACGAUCGCCUUUUUAUUUAUAUGUACUGUUUUAUCUGGCCCCAGGUAGAAACUUUUAUCUAUUCUGAGAAAACAAGCAAGUUCUGAGAGCCAGGGUUUUCCUACGUAGGAUGAAAAUGGAAUUCUCGGGUGCCAA: 1.43
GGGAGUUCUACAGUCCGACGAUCUUCUUCAUGGGAAAUGUUAAAAGUUUAGCAUGUAACAUGUAAAUAUGUUGUACUUAAUGUUGAUCUCAAAACUUUAUUAUCUAGAUAUAAGAAAAAUUACUUUUUACUUCUGGAAUUCUCGGGUGCCAA: 1.03
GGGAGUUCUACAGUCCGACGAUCUCCACAGUUGUCAGUUGUGAAGAGGGGACCAGAUGUCACUCUGCAGCAGGCUGAUGGAAGAUGGCGGGGCCUGCCAACCCCGAGGCUGGGGGAUCGCCAUAUGGACCACCUGGAAUUCUCGGGUGCCAA: 0.658
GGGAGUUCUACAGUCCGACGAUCUAAAAACAAAACAACAAACUUGAUUCCUGGGCUGUGGCAAGUUUUCUUUGUCCUCAAAACUGGCAGAUACUGGAGCUGGGCAGCCAUUUUUCCUUUUAGUGUCUCUUGAAUGGAAUUCUCGGGUGCCAA: 0.649
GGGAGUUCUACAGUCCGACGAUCUGAUACUUCAUGUAUUUGAAUAUAGUUAAAUCGUAUUAUUUUUUUCUUAACAGAAAUAUUUUUAAAAAUGAAAAAGUACUCAAAAGUGAGAAGAGUUAACUUGUCAAAGCUGGAAUUCUCGGGUGCCAA: 0.509
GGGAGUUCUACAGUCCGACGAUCGCGUGUCCCAGCCCAUGCCCCUCUGUCUUCGUGGAGAGUGUUGUGUUGAGCCCAUUCAGUAGCCGAGUCUUGUCACUCUGUGCCAGCCUCAGUCCUGUGUCCCUUUUUCUUGGAAUUCUCGGGUGCCAA: 0.227
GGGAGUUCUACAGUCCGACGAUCUUACAAAUUAAUUGACUUUGAUAGUUAAAAGAUUAUGAGGUAACCCAUCUGCAAUUUGCCUGUGGGAGAAGCAUCCUUUAGUUCAUCUUAAGGAAGUGCUUUAUCAGCUAUGGAAUUCUCGGGUGCCAA: 0.21
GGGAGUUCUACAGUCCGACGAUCGUGAGGACCAAAAAUCUGAAACUCUUAUGAAUCUGACAUAUUAUAUGGAAAUUAUAUCUUGUGACCGUCUUCAAGUGCAUGGACUUAAAAUUCAUGAGAGACUAAAUGUGUGGAAUUCUCGGGUGCCAA: 2.94
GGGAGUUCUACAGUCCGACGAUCCAGAAUUCUAUAGCAUGAAGGUUAACCUUGUCUCCAUUCAUGGGGGUUUAAUUGCCCUAUUGCUCAAUGGUGUUCUUGCAUGGGGAUUCUCCAGUCCUACAGAUGAAAGCUGGAAUUCUCGGGUGCCAA: 4.65

Excerpt of the above (sample 2):
CTGAAAGA: 0.096
AACTGATC: -0.066
CGCCTCGC: 0.209
CTTATCAA: 0.149
CTGGCAAA: 0.0394
AACCTACT: -0.144
ATCGTCAT: -0.0328
GGATACTA: 0.0187
